Measured values gathered from unrelated publications.
Protocols differ between the studies behind these lines. “And” joins repeats or separate records; there may be more than shown. Numbers after ± are the reported error.
rep main protease: Replicase polyprotein 1ab, main protease (rep, Severe acute respiratory syndrome coronavirus 2, UniProt P0DTD1)
rep nsp14 methyltransferase: Replicase polyprotein 1ab, nsp14 methyltransferase (rep, Severe acute respiratory syndrome coronavirus 2, UniProt P0DTD1)
rep nsp3 macrodomain: Replicase polyprotein 1ab, nsp3 macrodomain (rep, Severe acute respiratory syndrome coronavirus 2, UniProt P0DTD1)
rep papain-like protease: Replicase polyprotein 1ab, papain-like protease (rep, Severe acute respiratory syndrome coronavirus 2, UniProt P0DTD1)

CC(=O)N[C@H](Cc1ccc(O)cc1)C(=O)N[C@@H](CCCNC(=N)N)C(=O)N[C@@H](Cc1ccccc1)C(=O)N[C@H]1CCC[C@@H]1C(=O)N[C@@H](CCCNC(=N)N)C(=O)N[C@@H](CC(N)=O)C(=O)N[C@H]1CCC[C@@H]1C(=O)N[C@H](C(=O)N[C@@H](Cc1ccccc1)C(=O)N[C@H]1CCC[C@@H]1C(=O)N[C@@H](Cc1ccccc1)C(=O)N[C@@H](Cc1ccc(O)cc1)C(=O)N[C@H]1CCC[C@@H]1C(=O)N[C@H](C(=O)N[C@@H](CC(=O)O)C(N)=O)[C@@H](C)O)C(C)C — koff (rep main protease; binding, SPR): 0.00576 s⁻¹
c1ccc(C[Se][Se]Cc2ccccc2)cc1 — inhibition (rep main protease; enzyme activity, inhibitor; 40 µM): 76.2% and 74%
CC1CC(c2ccc(C(=O)O)cc2F)=NN1c1ccc(C#N)c(Cl)c1 (centres unmarked) — lipophilic ligand efficiency (rep nsp14 methyltransferase): 1.9
O=C(/C=C/c1ccc(O)c(O)c1)O[C@@H]1Cc2c(O)cc(O)cc2O[C@@H]1c1ccc(O)c(O)c1 — Rmax (rep main protease; surface plasmon resonance): 319 RU
CCOc1ccc(CN2CC[C@H]2C(=O)NC)cc1-c1cccc(C(=O)NC[C@@H]2COC(C)(C)O2)c1 — remaining activity (rep main protease; 3CL protease activity; 1 µM): 106%
O=C(Oc1cncc(Cl)c1)c1ccco1 — Hill slope (rep main protease; enzyme activity, inhibitor): 0.99 ± 0.07
O=C(NC1CCC(F)(F)CC1)C(c1cncnc1)N(C(=O)C(F)Cl)c1ccc(-c2cncs2)cc1 (centres unmarked) — inhibition (rep main protease; enzyme activity, inhibitor; 0.926 µM): 101%
NCC(CCC(N)C(=O)O)CC1OC(n2cnc3c(N)ncnc32)C(O)C1O (centres unmarked) — Hill slope (Replicase polyprotein 1ab, nsp16 with nsp10 (rep, Severe acute respiratory syndrome coronavirus 2, UniProt P0DTD1); nsp10-nsp16 methyltransferase activity, radiometric): 1.2 ± 0.2
CNC(=O)C[C@H](Cc1ccncc1)NC(=O)[C@@H](Cc1cccc(Br)c1)NC(=O)[C@@H](N)Cc1ccsc1 — remaining activity (rep main protease; 0.5229 µM): 60.2%
Cn1cc(C(=O)Nc2ccccn2)c2ccccc21 — Hill slope (rep main protease; protease activity, SAMDI-MS): 1.28
CC(=O)N[C@@H](Cc1ccc(O)cc1)C(=O)N[C@@H](CC(=O)O)C(=O)N[C@H]1CCC[C@@H]1C(=O)N[C@@H](Cc1ccccc1)C(=O)N[C@@H](Cc1ccc(O)cc1)C(=O)N[C@H]1CCC[C@@H]1C(=O)N[C@@H](Cc1ccc(O)cc1)C(=O)N[C@H](C(=O)N[C@H](C(=O)N[C@@H](Cc1ccccc1)C(=O)N[C@@H](Cc1c[nH]cn1)C(=O)N[C@H](C(=O)N[C@@H](C)C(=O)N[C@H](C(N)=O)[C@@H](C)O)C(C)C)[C@@H](C)O)C(C)C — kon (rep main protease; binding, SPR; pH 7.6): 1.26e+07 M⁻¹ s⁻¹
COc1cc(C(=O)N(CCC(=O)N2CCNCC2)Cc2cccc(Cl)c2)cc(OC)c1OC — ΔTm (rep nsp3 macrodomain; thermal stabilisation, differential scanning fluorimetry; 300 µM, SARS-CoV-2): 0.22 ± 0.08 °C
Cc1ccc(OCCN(C)C)cc1C(=O)N[C@H](C)c1cc(-c2cccnc2N2CCCC2)nc2ccccc12 — GFP/mCherry signal ratio (rep papain-like protease; reporter gene, cell-based): 0 and 90.5 and 73.4 and 25.9 and 69.1
CNC(=O)C[C@H](Cc1ccc(F)cc1)NC(=O)[C@@H](Cc1ccc(Cl)cc1Cl)NC(=O)[C@H](N)Cc1ccccc1C#N — remaining activity (rep main protease; 3CL protease activity; 1 µM): 13.7%
CCc1ccccc1NC(=S)N/N=C/c1ccc(O)cc1O — remaining activity (rep main protease; enzyme activity, jump dilution; 122 µM, 2 h): ~60%
CC(=O)Nc1ccc(-c2cnc(N3C(=O)CSC3c3cc4ccccc4nc3Cl)s2)cc1 (centres unmarked) — ΔTm (rep papain-like protease; thermal stability, DSF): 8 °C
CC(C)(C)[C@@H]1NC(=O)O[C@@H]2CCC[C@H]2OC/C=C/C(F)(F)c2nc3ccccc3nc2O[C@@H]2C[C@@H](C(=O)N[C@]3(C(=O)NS(=O)(=O)C4(C)CC4)C[C@H]3C(F)F)N(C2)C1=O — remaining activity (rep papain-like protease; protease activity, inhibitor, fluorescence; 20 µM, 25 °C): no inhibition
COc1cc2c(cc1OC)-c1c(OC)c(OC)cc3c1[C@H](C2)N(C)CC3 — relative STD saturation (rep main protease; STD NMR, measured: proton H-16; relative to: H-8 signal): 47.2%
CC(=O)Nc1ccc(S(=O)(=O)NNc2ncnc3sccc23)cc1 — ΔTm (rep nsp3 macrodomain; thermal stabilisation, differential scanning fluorimetry; 150 µM, SARS-CoV-2): 0.68 ± 0.04 °C
O=C(N[C@@H](Cc1ccccc1)C(=O)N[C@@H](C[C@@H]1CCNC1=O)C(O)S(=O)(=O)O)OCc1ccccc1 (some centres unmarked) — ΔTm (rep main protease; thermal stability, DSF): 8.28 °C
CNC(=O)CC1CN(C(=O)c2ccc(C(F)(F)F)cn2)CCN1C(=O)c1cccnn1 (centres unmarked) — remaining activity (rep main protease; 0.0001693 µM): 95.1%
O=C(CCc1ccccc1)NOC(=O)OCc1ccccc1 — KI (rep main protease; enzyme inactivation, inhibitor; 1 to 30 µM): 1.18 ± 0.43 µM
O=C(NCCc1cccc(F)c1)[C@H](c1cncnc1)N(C(=O)[C@H](F)Cl)c1ccc(S(F)(F)(F)(F)F)cc1 — kinact (rep main protease; enzyme activity, inhibitor): 0.0043 s⁻¹
Cc1ccc(OCCN(C)C)cc1C(=O)N[C@H](C)c1cc(-c2ccco2)nc2ccccc12 — GFP/mCherry signal ratio (rep papain-like protease; reporter gene, cell-based): 12.8 and 39.7 and 45.6 and 0.467 and 18.1 and 0
C[C@](C(=O)NC1CCOCC1)(c1cncnc1)N(C(=O)[C@H](F)Cl)c1ccc(OC(F)(F)Cl)cc1 — inhibition (rep main protease; enzyme activity, inhibitor; 1.111 µM): 99.4%
Cc1ccc(OCCN(C)C)cc1C(=O)N[C@H](C)c1cc(-c2cncs2)nc2ccccc12 — GFP/mCherry signal ratio (rep papain-like protease; reporter gene, cell-based): 0.649 and 0 and -5.54 and 106 and 83.4
CC(NC(=O)C(Cc1ccccc1)NC(=O)OCc1ccccc1)C(=O)CF (centres unmarked) — maximum inhibition (rep main protease; 3CL protease activity): 88.7%
CCOC(=O)[C@@H](NC(=O)c1ccccc1[Se][Se]c1ccccc1C(=O)N[C@H](C(=O)OCC)C(C)C)C(C)C — inhibition (rep main protease; enzyme activity, inhibitor; 40 µM): 88.7% and 86.5%
CCC1CC(c2ccc(C(=O)O)cc2C)=NN1c1ccc(C#N)c(Cl)c1 (centres unmarked) — lipophilic ligand efficiency (rep nsp14 methyltransferase): 2.6
CC(c1ccccc1Cl)N(C)Cc1cc(O)ccc1Cl (centres unmarked) — ΔTm (rep papain-like protease; thermal stability, DSF): 2.98 °C
CC1(C)C2CCC(CNC(=O)c3ccccc3[Se][Se]c3ccccc3C(=O)NCC3CCC4CC3C4(C)C)C1C2 (centres unmarked) — inhibition (rep main protease; enzyme activity, inhibitor; 40 µM): 66.4% and 71.6%
O=C(CSc1[nH]c2ccccc2c1SCC(=O)Nc1ccc(Cl)c(Cl)c1)Nc1ccc(Cl)c(Cl)c1 — EC50 ratio (Replicase polyprotein 1ab, nsp12 with nsp14/nsp10 (rep, Severe acute respiratory syndrome coronavirus 2, UniProt P0DTD1); SARS-CoV-2 RdRp activity, CoV-Gluc reporter; HEK293T; relative to: with nsp14/nsp10 over nsp12 alone): 1.18
Brc1c(Br)c(Br)c2[nH]nnc2c1Br — Hill slope (Replicase polyprotein 1ab, nsp14 N7-methyltransferase (rep, Severe acute respiratory syndrome coronavirus 2, UniProt P0DTD1); N7-methyltransferase activity, inhibitor, Py-FLINT): 0.91 ± 0.16
O=C(Oc1cncc(Cl)c1)c1cc2ccccc2[nH]1 — kinact/Ki (rep main protease; inhibitor, biochemical): 7600 M⁻¹ s⁻¹
CNC(=O)C[C@H](Cc1ccc(F)cc1)NC(=O)[C@@H](Cc1ccc(Cl)cc1Cl)NC(=O)[C@H](N)Cc1ccccc1[N+](=O)[O-] — remaining activity (rep main protease; 0.5229 µM): 44%
CC1CC(c2ccc(C(=O)O)o2)=NN1c1ccc(C#N)c(Cl)c1 (centres unmarked) — lipophilic ligand efficiency (rep nsp14 methyltransferase): 1.4
Cc1cc(C)nc(Sc2nc3sccn3c2[N+](=O)[O-])n1 — Hill slope (rep main protease; protease activity, SAMDI-MS): 1.4 and 1.41
O=c1c2cccc([N+](=O)[O-])c2[se]n1Cc1ccccc1 — Hill coefficient (rep main protease; FRET; SARS-CoV-2; main protease): 1.44 ± 0.08

A few entries again:
COc1cc(C(=O)N(CCC(=O)N2CCNCC2)Cc2cccc(Cl)c2)cc(OC)c1OC — ΔTm (rep nsp3 macrodomain; thermal stabilisation, differential scanning fluorimetry; 300 µM, SARS-CoV-2): 0.22 ± 0.08 °C
Cc1ccc(OCCN(C)C)cc1C(=O)N[C@H](C)c1cc(-c2cccnc2N2CCCC2)nc2ccccc12 — GFP/mCherry signal ratio (rep papain-like protease; reporter gene, cell-based): 0 and 90.5 and 73.4 and 25.9 and 69.1
CNC(=O)C[C@H](Cc1ccc(F)cc1)NC(=O)[C@@H](Cc1ccc(Cl)cc1Cl)NC(=O)[C@H](N)Cc1ccccc1C#N — remaining activity (rep main protease; 3CL protease activity; 1 µM): 13.7%
